Measurements of several laboratories.
Each line is one published result; not all experiments were run side by side. “And” joins repeats or separate records; there may be more than shown. ± gives the spread as reported. ≈ marks a conversion by molar mass, not a printed value.

Compound	target or system	assay	test system	setting	quantity	result
Cc1cc(Oc2nc(N3CC[C@@H](c4ccncc4)C3)ncc2F)[nH]n1	Mycobacterium tuberculosis	OD	H37Rv PurF CRISPRi knockdown	0.003906 µM, together with: anhydrotetracycline low	normalised growth	14% and 13%
Cc1ccc2nc(C)c(C(=O)NCc3ccccc3)n2c1	Mycobacterium kansasii	microbial growth		6 days	MIC	4 µM
CC(C)CC(C(=O)N1CC2(CC1C#N)C(=O)Nc1ccccc12)N(C)C(=O)c1cc2c(F)cc(F)c(F)c2[nH]1 (stereo not drawn)	human coronavirus 229E	viral replication	MRC-5	0.01 µM	inhibition	107%
CN[C@@H]1[C@H](O)[C@H](NC)[C@H]2O[C@]3(O)[C@H](O[C@@H]2[C@H]1O)O[C@H](C)C[C@H]3NC(=O)Cc1cc(Cl)ccn1	Streptococcus pyogenes	microbial growth, broth dilution	ATCC700294		MIC	25 µg/mL
Cc1ccc(CNC(=O)Cc2c(C)nc3ccc(C)cn23)cc1	Mycobacteroides abscessus		ATCC 19977	72 h	MIC	> 50 µM
O=C(NNc1ccccc1)c1nnc(C23CC4CC(CC(C4)C2)C3)o1	Fusarium graminearum	fungal growth, inhibitor			EC50	> 50 µg/mL
CN[C@@H]1[C@H](O)[C@H](NC)[C@H]2O[C@]3(O)[C@H](O[C@@H]2[C@H]1O)O[C@H](C)C[C@H]3NC(=O)Cc1ccc(F)cn1	Mycobacterium avium	microbial growth	ATCC25291		MIC	25 to 50 µg/mL
CCc1ccn2c(C(=O)NCc3ccc(C)cc3)c(C)nc2c1	Mycobacterium kansasii	microbial growth		6 days	MIC	6.1 µM
O=C(NNc1ccc(Cl)cc1)c1nnc(CC23CC4CC(CC(C4)C2)C3)o1	Pyricularia grisea	microbial growth			EC50	5.05 µg/mL (≈ 13.1 µM)
O=C1NC2(CC2)COc2ncc(F)cc2[C@H]2COCCN2c2ccn3ncc1c3n2			Sprague-Dawley rat, female, kidneys	oral, 10 mg/kg/day, 4 weeks	organ weight	2.1 ± 0.194 g
CN[C@@H]1[C@H](O)[C@H](NC)[C@H]2O[C@]3(O)[C@H](O[C@@H]2[C@H]1O)O[C@H](C)C[C@H]3NC(=O)CNC(C)(C)C	Proteus vulgaris	microbial growth, broth dilution	ATCC33420		MIC	> 200 µg/mL
CC(C)(C)C(=O)OCOP(=O)(OCOC(=O)C(C)(C)C)C1CCCN(O)C1=O (stereo not drawn)	OVCAR-3				CC50	> 100 µM

Repeated from above:
Compound	target or system	assay	test system	setting	quantity	result
O=C1NC2(CC2)COc2ncc(F)cc2[C@H]2COCCN2c2ccn3ncc1c3n2			Sprague-Dawley rat, female, kidneys	oral, 10 mg/kg/day, 4 weeks	organ weight	2.1 ± 0.194 g
